# Measured values of several laboratories.
# Protein sequences, listed by entry. Tags and fused reporters are not part of them. Lines headed by an entry give the natural chain unless they say otherwise; changes in a name come on top.
# UniProt Q02294, whole entry, looked up: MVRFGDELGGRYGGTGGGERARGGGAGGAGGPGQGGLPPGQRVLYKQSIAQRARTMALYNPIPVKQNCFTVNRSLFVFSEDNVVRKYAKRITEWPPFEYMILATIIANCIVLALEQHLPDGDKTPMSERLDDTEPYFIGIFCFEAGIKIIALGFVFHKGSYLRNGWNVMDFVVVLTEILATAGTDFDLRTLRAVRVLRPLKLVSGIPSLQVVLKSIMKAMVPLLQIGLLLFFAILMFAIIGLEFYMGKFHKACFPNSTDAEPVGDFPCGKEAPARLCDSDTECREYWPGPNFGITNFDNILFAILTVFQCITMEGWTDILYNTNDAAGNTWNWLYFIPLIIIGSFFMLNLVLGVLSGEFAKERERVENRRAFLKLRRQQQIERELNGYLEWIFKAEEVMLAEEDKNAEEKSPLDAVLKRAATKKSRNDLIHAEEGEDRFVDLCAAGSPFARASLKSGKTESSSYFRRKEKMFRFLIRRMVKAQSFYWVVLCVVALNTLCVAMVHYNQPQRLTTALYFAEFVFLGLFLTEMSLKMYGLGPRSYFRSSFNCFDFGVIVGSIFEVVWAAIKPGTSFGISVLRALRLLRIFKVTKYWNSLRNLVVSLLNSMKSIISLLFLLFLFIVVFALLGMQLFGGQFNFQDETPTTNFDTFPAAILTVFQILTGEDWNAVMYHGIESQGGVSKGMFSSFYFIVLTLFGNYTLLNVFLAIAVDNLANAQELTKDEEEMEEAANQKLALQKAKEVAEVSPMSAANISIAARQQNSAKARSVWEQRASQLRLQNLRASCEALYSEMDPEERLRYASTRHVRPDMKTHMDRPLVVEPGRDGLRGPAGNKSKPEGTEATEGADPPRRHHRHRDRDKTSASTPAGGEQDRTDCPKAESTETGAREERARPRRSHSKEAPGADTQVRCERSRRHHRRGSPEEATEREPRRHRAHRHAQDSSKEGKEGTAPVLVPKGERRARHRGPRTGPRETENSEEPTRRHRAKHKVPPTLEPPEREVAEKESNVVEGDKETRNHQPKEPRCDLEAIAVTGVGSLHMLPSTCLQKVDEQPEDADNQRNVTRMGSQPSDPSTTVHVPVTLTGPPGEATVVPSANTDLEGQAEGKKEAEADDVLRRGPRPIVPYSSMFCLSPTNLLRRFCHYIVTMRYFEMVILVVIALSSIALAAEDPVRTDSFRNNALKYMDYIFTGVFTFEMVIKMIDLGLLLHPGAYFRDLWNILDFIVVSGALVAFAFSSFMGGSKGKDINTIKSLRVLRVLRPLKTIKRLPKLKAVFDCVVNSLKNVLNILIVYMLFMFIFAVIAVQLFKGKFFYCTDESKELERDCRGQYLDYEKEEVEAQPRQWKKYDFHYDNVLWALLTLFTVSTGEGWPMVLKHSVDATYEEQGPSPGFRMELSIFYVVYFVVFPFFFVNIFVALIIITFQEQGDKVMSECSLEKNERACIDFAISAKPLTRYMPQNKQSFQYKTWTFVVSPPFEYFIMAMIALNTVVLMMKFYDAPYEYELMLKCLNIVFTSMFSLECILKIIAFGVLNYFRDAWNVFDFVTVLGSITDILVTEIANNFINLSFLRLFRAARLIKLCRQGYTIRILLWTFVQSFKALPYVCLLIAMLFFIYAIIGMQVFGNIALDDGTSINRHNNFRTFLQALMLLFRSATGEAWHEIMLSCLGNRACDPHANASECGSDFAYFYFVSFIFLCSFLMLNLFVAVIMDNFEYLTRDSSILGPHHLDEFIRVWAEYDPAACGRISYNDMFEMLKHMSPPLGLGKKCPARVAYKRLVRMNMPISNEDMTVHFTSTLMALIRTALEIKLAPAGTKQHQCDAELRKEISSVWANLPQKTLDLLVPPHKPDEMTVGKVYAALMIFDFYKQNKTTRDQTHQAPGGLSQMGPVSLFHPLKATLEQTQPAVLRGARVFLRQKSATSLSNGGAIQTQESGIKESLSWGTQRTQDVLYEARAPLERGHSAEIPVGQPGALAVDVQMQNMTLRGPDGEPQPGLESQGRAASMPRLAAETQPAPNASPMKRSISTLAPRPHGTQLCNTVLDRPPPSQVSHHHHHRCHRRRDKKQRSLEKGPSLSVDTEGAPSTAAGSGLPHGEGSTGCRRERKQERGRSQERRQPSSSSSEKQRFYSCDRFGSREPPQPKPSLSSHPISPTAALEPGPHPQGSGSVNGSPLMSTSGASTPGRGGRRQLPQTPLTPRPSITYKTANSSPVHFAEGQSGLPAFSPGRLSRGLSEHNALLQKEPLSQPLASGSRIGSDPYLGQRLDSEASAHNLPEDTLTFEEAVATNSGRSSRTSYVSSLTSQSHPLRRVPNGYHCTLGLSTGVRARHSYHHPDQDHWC
# UniProt P23975, whole entry: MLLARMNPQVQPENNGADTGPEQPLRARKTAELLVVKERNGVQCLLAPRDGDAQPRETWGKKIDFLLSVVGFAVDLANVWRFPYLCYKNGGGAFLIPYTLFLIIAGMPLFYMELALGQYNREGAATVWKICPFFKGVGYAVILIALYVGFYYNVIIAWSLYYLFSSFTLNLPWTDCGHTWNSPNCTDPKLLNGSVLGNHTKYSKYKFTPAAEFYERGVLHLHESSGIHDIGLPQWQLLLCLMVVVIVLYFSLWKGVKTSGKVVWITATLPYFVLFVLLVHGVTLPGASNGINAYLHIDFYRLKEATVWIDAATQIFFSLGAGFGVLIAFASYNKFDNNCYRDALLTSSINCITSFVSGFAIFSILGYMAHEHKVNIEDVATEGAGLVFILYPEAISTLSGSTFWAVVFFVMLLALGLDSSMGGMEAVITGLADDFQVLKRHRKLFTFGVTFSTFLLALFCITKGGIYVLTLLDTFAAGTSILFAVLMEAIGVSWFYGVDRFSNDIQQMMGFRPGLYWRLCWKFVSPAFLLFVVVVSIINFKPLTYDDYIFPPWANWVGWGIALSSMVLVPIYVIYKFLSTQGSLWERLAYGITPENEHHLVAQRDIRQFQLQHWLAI
# UniProt O42275, whole entry, looked up: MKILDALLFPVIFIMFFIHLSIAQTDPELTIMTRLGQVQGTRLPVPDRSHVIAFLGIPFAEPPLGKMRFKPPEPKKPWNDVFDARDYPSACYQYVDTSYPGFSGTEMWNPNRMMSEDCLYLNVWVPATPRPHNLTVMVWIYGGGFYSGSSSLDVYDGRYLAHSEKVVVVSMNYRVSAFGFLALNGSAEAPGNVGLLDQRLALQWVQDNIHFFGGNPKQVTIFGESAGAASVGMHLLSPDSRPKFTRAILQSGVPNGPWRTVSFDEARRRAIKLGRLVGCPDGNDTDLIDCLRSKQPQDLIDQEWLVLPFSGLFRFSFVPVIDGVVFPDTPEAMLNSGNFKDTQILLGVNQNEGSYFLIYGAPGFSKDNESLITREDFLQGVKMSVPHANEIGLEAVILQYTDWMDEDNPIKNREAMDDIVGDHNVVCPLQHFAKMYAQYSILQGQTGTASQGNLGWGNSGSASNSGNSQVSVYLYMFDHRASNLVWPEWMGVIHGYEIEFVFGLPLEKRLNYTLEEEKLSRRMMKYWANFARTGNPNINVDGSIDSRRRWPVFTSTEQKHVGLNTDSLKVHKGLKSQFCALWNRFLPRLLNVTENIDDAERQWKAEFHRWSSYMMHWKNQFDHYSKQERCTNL
# Protocols differ between the studies behind these lines. ± gives the spread as reported.
# Cacna1b with α2δ, β3 subunits: Voltage-dependent N-type calcium channel subunit alpha-1B, with α2δ, β3 subunits (Cacna1b, Rattus norvegicus, UniProt Q02294)
Structure (SMILES),target,test,system,setting,IC50
CC[C@H](C)[C@H](NC(=O)[C@H](C)NC(=O)[C@H](CCC(=O)O)NC(=O)[C@H](CCC(=O)O)NC(=O)[C@H](CC(C)C)NC(=O)[C@H](CCCCN)NC(=O)[C@H](CCCCN)NC(=O)[C@H](CCSC)NC(=O)[C@H](CCC(=O)O)NC(=O)[C@H](Cc1ccc(O)cc1)NC(=O)[C@H](CCC(=O)O)NC(=O)[C@H](CC(C)C)NC(=O)[C@H](CC(=O)O)NC(=O)[C@H](CC(C)C)NC(=O)[C@H](Cc1ccccc1)NC(=O)[C@H](Cc1ccc(O)cc1)NC(=O)[C@@H](NC(=O)[C@H](CC(N)=O)NC(=O)[C@@H](NC(=O)[C@H](CCC(N)=O)NC(=O)[C@H](CC(=O)O)NC(=O)[C@H](CC(C)C)NC(=O)[C@@H](N)CO)[C@@H](C)CC)C(C)C)C(=O)N[C@@H](CCCCN)C(=O)N[C@@H](CCCCN)C(=O)N[C@@H](CC(C)C)C(=O)N[C@@H](CCC(=O)O)C(=O)N[C@@H](CCC(=O)O)C(=O)N[C@H](C(=O)N[C@@H](Cc1ccc(O)cc1)C(=O)N[C@H](C(=O)N[C@@H](CC(=O)O)C(=O)N[C@@H](CC(C)C)C(=O)N[C@@H](CCCCN)C(=O)N[C@@H](CCC(=O)O)C(=O)N[C@@H](CC(C)C)C(=O)O)[C@@H](C)CC)[C@@H](C)O,"Spike glycoprotein (Severe acute respiratory syndrome coronavirus, UniProt P59594)","cell-cell fusion, inhibitor, luciferase fusion","293T donor, Huh-7 target","16 h, 37 °C, dual mutations",0.0141 µM
O=C(Nc1ccc(F)cc1)C1C(=O)N(O)C(=O)c2cc([N+](=O)[O-])ccc21 (stereo not shown),"Nucleoprotein, exonuclease domain (N, Lymphocytic choriomeningitis virus, UniProt P09992)","exonuclease activity, inhibitor",,,13.3 ± 1 µM
CCOc1ccccc1-c1cc(C(=O)NC/C=C/S(C)(=O)=O)nn1COC,"Polyprotein P1234, nsP2 protease (Chikungunya virus, UniProt Q5XXP4)",FRET,,,30 ± 7 µM
c1ccc(-c2ccc3c(n2)sc2c(N4CCNCC4)ncnc23)cc1,"Beta-glucuronidase (bglR, Clostridium perfringens, UniProt Q8XP19)","enzyme activity, inhibitor",,,0.015 ± 0.008 µM
CC[C@H](C)[C@@H]1NC(=O)[C@@H]2CSSC[C@H](NC(=O)[C@H](CCCNC(=N)N)NC(=O)[C@@H]3CSSC[C@H](NC1=O)C(=O)N[C@@H]([C@@H](C)O)C(=O)N[C@@H](CCCNC(=N)N)C(=O)NCC(=O)N[C@@H](Cc1ccccc1)C(=O)N3)C(=O)N[C@@H](CC(C)C)C(=O)N[C@H]1CSSC[C@H](NC(=O)[C@H](C(C)C)NC(=O)CNC(=O)[C@H](CCCNC(=N)N)NC(=O)[C@H](CC(C)C)NC1=O)C(=O)N[C@@H](CCCNC(=N)N)C(=O)N2,"Lethal factor (Bacillus anthracis, UniProt P15917)",protease activity,,"crude desalted peptide, no BSA",0.505 ± 0.059 µM
CC[C@H](C)[C@H](NC(=O)[C@H](C)NC(=O)[C@H](CCC(=O)O)NC(=O)[C@H](CCC(=O)O)NC(=O)[C@H](CC(C)C)NC(=O)[C@H](CCCCN)NC(=O)[C@H](CCCCN)NC(=O)[C@H](CCSC)NC(=O)[C@H](CCC(=O)O)NC(=O)[C@H](Cc1ccc(O)cc1)NC(=O)[C@H](CCC(=O)O)NC(=O)[C@H](CC(C)C)NC(=O)[C@H](CC(=O)O)NC(=O)[C@H](CC(C)C)NC(=O)[C@H](Cc1ccccc1)NC(=O)[C@H](Cc1ccccc1)NC(=O)[C@@H](NC(=O)[C@H](CC(N)=O)NC(=O)[C@@H](NC(=O)[C@H](CCC(N)=O)NC(=O)[C@H](CC(=O)O)NC(=O)[C@H](CC(C)C)NC(=O)[C@@H](N)CO)[C@@H](C)CC)C(C)C)C(=O)N[C@@H](CCCCN)C(=O)N[C@@H](CCCCN)C(=O)N[C@@H](CC(C)C)C(=O)N[C@@H](CCC(=O)O)C(=O)N[C@@H](CCC(=O)O)C(=O)N[C@@H](CO)C(=O)N[C@@H](Cc1ccc(O)cc1)C(=O)N[C@H](C(=O)N[C@@H](CC(=O)O)C(=O)N[C@@H](CC(C)C)C(=O)N[C@@H](CCCCN)C(=O)N[C@@H](CCC(=O)O)C(=O)N[C@@H](CC(C)C)C(=O)O)[C@@H](C)CC,"Spike glycoprotein (MERS-CoV, UniProt K9N5Q8)","cell-cell fusion, inhibitor, luciferase fusion","293T donor, Huh-7 target","16 h, 37 °C",0.927 µM
"Cc1ccc(NC2CNC2)cc1C(=O)N[C@H](C)c1cccc(-c2ccc(CN[C@H]3CC[C@@H](O)C3)s2)c1 (single isomer, unassigned)","Replicase polyprotein 1ab, papain-like protease (rep, Severe acute respiratory syndrome-related coronavirus, UniProt P0C6X7)",enzyme activity,,,0.128 ± 0.034 µM
Brc1ccc(Cn2cnc3ccccc32)cc1,"Enoyl-[acyl-carrier-protein] reductase [NADH] (Francisella tularensis subsp. tularensis, UniProt Q5NGQ3)",,,,27 µM
CC[C@H](C)[C@H](NC(=O)[C@H](C)NC(=O)[C@H](CCC(=O)O)NC(=O)[C@H](CCC(=O)O)NC(=O)[C@H](CC(C)C)NC(=O)[C@H](CCCCN)NC(=O)[C@H](CCCCN)NC(=O)[C@H](CCSC)NC(=O)[C@H](CCC(=O)O)NC(=O)[C@H](Cc1ccc(O)cc1)NC(=O)[C@H](CCC(=O)O)NC(=O)[C@H](CC(C)C)NC(=O)[C@H](CC(=O)O)NC(=O)[C@H](CC(C)C)NC(=O)[C@H](Cc1ccccc1)NC(=O)[C@H](Cc1ccc(O)cc1)NC(=O)[C@@H](NC(=O)[C@H](CC(N)=O)NC(=O)[C@@H](NC(=O)[C@H](CCC(N)=O)NC(=O)[C@H](CC(=O)O)NC(=O)[C@H](CC(C)C)NC(=O)[C@@H](N)CO)[C@@H](C)CC)C(C)C)C(=O)N[C@@H](CCCCN)C(=O)N[C@@H](CCCCN)C(=O)N[C@@H](CC(C)C)C(=O)N[C@@H](CCC(=O)O)C(=O)N[C@@H](CCC(=O)O)C(=O)N[C@@H](CO)C(=O)N[C@@H](Cc1ccc(O)cc1)C(=O)N[C@H](C(=O)N[C@@H](CC(=O)O)C(=O)N[C@@H](CC(C)C)C(=O)N[C@@H](CCCCN)C(=O)N[C@@H](CCC(=O)O)C(=O)N[C@@H](CC(C)C)C(=O)O)[C@@H](C)CC,"Spike glycoprotein (Severe acute respiratory syndrome coronavirus, UniProt P59594)","cell-cell fusion, inhibitor, luciferase fusion","293T donor, Huh-7 target","16 h, 37 °C",0.0269 µM
C[C@@H](O)[C@@H]1NC(=O)[C@@H]2CSSC[C@H](N)C(=O)N[C@@H](CCCCN)C(=O)N[C@@H](CCCNC(=N)N)C(=O)N[C@@H](CCCCN)C(=O)NCC(=O)N[C@@H](CO)C(=O)N[C@@H](CO)C(=O)N[C@H]3CSSC[C@H](NC(=O)[C@H](CO)NC(=O)CNC1=O)C(=O)N[C@@H](CCCNC(=N)N)C(=O)N[C@@H](CC(N)=O)C(=O)NCC(=O)N[C@@H](CCCCN)C(=O)N[C@H](C(N)=O)CSSC[C@H](NC(=O)[C@H](CC(=O)O)NC(=O)[C@H](Cc1ccc(O)cc1)NC(=O)[C@H](CO)NC(=O)[C@H]([C@@H](C)O)NC(=O)[C@H](CCCNC(=N)N)NC(=O)[C@H](CCCNC(=N)N)NC3=O)C(=O)N2,"Cacna1b with α2δ, β3 subunits","Ba2+ current, inhibitor, whole-cell patch clamp",HEK293 expressing α2δ and β3,"22 °C, together with: Ba2+ 20 mM",0.089 µM
CC[C@H](C)[C@H](NC(=O)[C@H](C)NC(=O)[C@H](CCC(=O)O)NC(=O)[C@H](CCC(=O)O)NC(=O)[C@H](CC(C)C)NC(=O)[C@H](CCCCN)NC(=O)[C@H](CCCCN)NC(=O)[C@H](CCSC)NC(=O)[C@H](CCC(=O)O)NC(=O)[C@H](Cc1ccc(O)cc1)NC(=O)[C@H](CCC(=O)O)NC(=O)[C@H](CC(C)C)NC(=O)[C@H](CC(=O)O)NC(=O)[C@H](CC(C)C)NC(=O)[C@H](Cc1ccccc1)NC(=O)[C@H](Cc1ccccc1)NC(=O)[C@@H](NC(=O)[C@H](CC(N)=O)NC(=O)[C@@H](NC(=O)[C@H](CCC(N)=O)NC(=O)[C@H](CC(=O)O)NC(=O)[C@H](CC(C)C)NC(=O)[C@@H](N)CO)[C@@H](C)CC)C(C)C)C(=O)N[C@@H](CCCCN)C(=O)N[C@@H](CCCCN)C(=O)N[C@@H](CC(C)C)C(=O)N[C@@H](CCC(=O)O)C(=O)N[C@@H](CCC(=O)O)C(=O)N[C@H](C(=O)N[C@@H](Cc1ccc(O)cc1)C(=O)N[C@H](C(=O)N[C@@H](CC(=O)O)C(=O)N[C@@H](CC(C)C)C(=O)N[C@@H](CCCCN)C(=O)N[C@@H](CCC(=O)O)C(=O)N[C@@H](CC(C)C)C(=O)O)[C@@H](C)CC)[C@@H](C)O,"Spike glycoprotein (Severe acute respiratory syndrome coronavirus, UniProt P59594)","cell-cell fusion, inhibitor, luciferase fusion","293T donor, Huh-7 target","16 h, 37 °C, dual mutations",0.00885 µM
CC(C)C[C@H](NC(=O)[C@@H]1CCC(=O)N1)C(=O)N[C@H]1CSSC[C@@H](C(=O)O)NC(=O)[C@H](Cc2c[nH]c3ccccc23)NC(=O)[C@@H]2CSSC[C@H](NC1=O)C(=O)NCC(=O)N[C@@H](Cc1ccc(O)cc1)C(=O)N[C@@H](CCCCN)C(=O)N[C@@H](CC(C)C)C(=O)N2,"Sodium-dependent noradrenaline transporter (SLC6A2, Homo sapiens, UniProt P23975)","noradrenaline transport, inhibitor, fluorescent substrate uptake",HEK293 expressing human NET,"30 min, 37 °C",2.53 ± 0.53 µM
O=C(O)COCCN1CCN(C(c2ccccc2)c2ccc(Cl)cc2)CC1 (stereo not shown),"Replicase polyprotein 1ab, nsp14 (rep, Severe acute respiratory syndrome-related coronavirus, UniProt P0C6X7)","enzyme activity, inhibitor",,,no inhibition
O=C(O)CCOc1c(SSc2cnn(-c3ccccc3)c(=O)c2OCCC(=O)O)cnn(-c2ccccc2)c1=O,"Sortase A (Bacillus anthracis str. H9401, UniProt P0DPQ5)",inhibitor,Bacillus anthracis,,9.98 ± 0.37 µM
CSCC[C@@H]1NC(=O)[C@H]([C@@H](C)O)NC(=O)[C@H](CCCNC(=N)N)NC(=O)[C@H](CCCNC(=N)N)NC(=O)[C@@H]2CSSC[C@@H]3NC(=O)[C@H](CO)NC(=O)CNC(=O)[C@H]([C@@H](C)O)NC(=O)[C@H](CSSC[C@H](N)C(=O)N[C@@H](CCCCN)C(=O)N[C@@H](CCCNC(=N)N)C(=O)N[C@@H](CCCCN)C(=O)NCC(=O)N[C@@H](CO)C(=O)N[C@@H](CO)C(=O)N2)NC(=O)[C@H](CSSC[C@@H](C(N)=O)NC(=O)[C@H](CCCCN)NC(=O)CNC(=O)[C@H](CC(N)=O)NC(=O)[C@H](CCCNC(=N)N)NC3=O)NC(=O)[C@H](CC(=O)O)NC(=O)[C@H](Cc2ccc(O)cc2)NC1=O,"Cacna1b with α2δ, β3 subunits","Ba2+ current, inhibitor, whole-cell patch clamp",HEK293 expressing α2δ and β3,"22 °C, together with: Ba2+ 20 mM",0.172 µM
O=C(C1CCN(Cc2ccccc2)CC1)N1CCc2ccccc21,"Acetylcholinesterase (ache, Electrophorus electricus, UniProt O42275)","enzyme activity, inhibitor, Ellman",,"10 min preincubation, pH 8, 23 °C",417 ± 33 µM
